Measured values from different studies.
Numbered parts are unrelated; each lists some results of a single study. Positions count from the first letter of the parent shown.

Set 1 — technique: protein-binding microarray; form: double-stranded DNA, one strand shown; medium: in vitro; tested at: 250 nM; setting: 60-bp whole probe; with: salmon DNA 0.4 mg/ml; baseline: random background probes; reading: higher = stronger binding; all sequences stand within: GCCTAGCAC … GTCTTGATTCGCTTGACGCTGCTG
Target: Interferon regulatory factor 5, full length, phosphomimetic (IRF5, Homo sapiens, UniProt Q13568-2, residues 1-514, K96S/S451D/S453D/S456D/S462D)
For `TTCGGTTTCCTTATCCTTTAGTGCTAG`, the log fluorescence was 2.17 z-score.
`TGCCATATTTATCTGCAAAGGTGCTAG` gave a log fluorescence of 0.326 z-score.
`TCTTTTTATGCTTTCTTTAAGTGCTAG` gave a log fluorescence of 1.74 z-score.
The log fluorescence of `TGTCATTTACATTTTAGTAGGTGCTAG` is reported as 0.678 z-score.
With `GACGGTATCGACTATCGGGAGGTGCTA` the log fluorescence was 3.74 z-score.
The log fluorescence of `GACAGACTGGGACTGGGGACGTGCTAG` is reported as -0.52 z-score.
With `TTTGGAGTCATTCTCAACCCGTGCTAG` the log fluorescence was -0.126 z-score.
`TCAAATTTCCCTCTGCTACTGTGCTAG` gave a log fluorescence of 0.694 z-score.
For `TACGGTCTCGGTATCGGGACGTGCTAG`, the log fluorescence was 1.26 z-score.
`TTTGCTTTCCTTTGCTTTCTGTGCTAG` gave a log fluorescence of 2.78 z-score.
For `ATAGATCTCAGACTGGATTAGTGCTAG`, the log fluorescence was -0.0369 z-score.
With `GACGATCTGGGGTATCGAGACGTGCTA` the log fluorescence was 0.0463 z-score.
`GACGATATCGGGTTTCGTGACGTGCTA` has a log fluorescence of 2.54 z-score.
The log fluorescence of `TTAGGACTTCTTATCCTTTAGTGCTAG` is reported as -0.0361 z-score.
`TTAGAACTGAGTCTCGATAAGTGCTAG` has a log fluorescence of 0.746 z-score.
`GACGGACTGGGTCTCGGAACGTGCTAG` gave a log fluorescence of -0.503 z-score.

Set 2 — technique: RNA Bind-n-Seq; form: RNA; medium: in vitro; tested at: 200 nM; setting: whole 134-nt RNA, ends assumed; with: 150 mM LiCl; baseline: input library; reading: higher = stronger binding; all molecules: 7-deaza-guanosine replaces G
Target: Ras GTPase-activating protein-binding protein 1, full length (G3BP1, Homo sapiens, UniProt Q13283)
Sequence of UniProt Q13283 (whole entry, looked up): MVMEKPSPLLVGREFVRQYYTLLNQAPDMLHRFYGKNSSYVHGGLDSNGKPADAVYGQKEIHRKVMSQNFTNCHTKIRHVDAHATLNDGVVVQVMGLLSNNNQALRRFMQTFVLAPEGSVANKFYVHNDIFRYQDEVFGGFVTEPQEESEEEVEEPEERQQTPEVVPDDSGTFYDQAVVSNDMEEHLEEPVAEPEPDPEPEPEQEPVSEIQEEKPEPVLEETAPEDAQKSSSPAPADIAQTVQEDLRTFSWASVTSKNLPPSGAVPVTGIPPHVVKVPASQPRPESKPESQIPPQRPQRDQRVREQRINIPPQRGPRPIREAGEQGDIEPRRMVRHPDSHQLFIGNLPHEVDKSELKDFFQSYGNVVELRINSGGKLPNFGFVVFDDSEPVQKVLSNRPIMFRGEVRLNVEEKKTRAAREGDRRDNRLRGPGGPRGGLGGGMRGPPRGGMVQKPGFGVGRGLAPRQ
The log2 enrichment of `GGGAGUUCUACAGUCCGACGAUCGUCCUGUGCUACACAUCGUAUGUACCGAAUCGGGGUUUUUGGGGAAAAAGGGGUGGGGAAAGUAUUAUGUUACGCCGUUCGGAUCUGCACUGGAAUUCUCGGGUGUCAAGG` is reported as -1.14.
For `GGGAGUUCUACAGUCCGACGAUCCUCAAGUCCUGUGCUACACAUCGUAUGUACCGAAUCGGGUGGGGUGGGGUGGGAAAGUAUUAUGUUACGCCGUUCGGAUCUGCACUUCCAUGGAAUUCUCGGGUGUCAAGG`, the log2 enrichment was -0.78.
With `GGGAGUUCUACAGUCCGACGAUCCAAGUCCUGUGCUACACAUCGUAUGUACCGAAUCGGGAAAGGGUUUGGGUUUGGGAAAGUAUUAUGUUACGCCGUUCGGAUCUGCACUUCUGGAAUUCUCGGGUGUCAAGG` the log2 enrichment was -0.624.
With `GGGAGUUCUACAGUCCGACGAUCCUGUGCUACACAUCGUAUGUACCGAAUCGGGUUUUUUUGGUUUUUUUGGGUUUUUUUGGGGAAAGUAUUAUGUUACGCCGUUCGGAUCUGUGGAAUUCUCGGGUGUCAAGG` the log2 enrichment was 0.978.
`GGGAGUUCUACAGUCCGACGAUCCCUCAAGUCCUGUGCUACACAUCGUAUGUACCGAAUCGGUGGGUGGGGUGGGGAAAGUAUUAUGUUACGCCGUUCGGAUCUGCACUUCCAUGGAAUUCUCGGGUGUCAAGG` gave a log2 enrichment of -0.0861.
The log2 enrichment of `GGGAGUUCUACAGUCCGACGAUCUGGCCCUGGUGGCAUGCGGGGAGGAAGAGGUGGCCUCAUGGAUCGUGGUGGUCCCGGUGGAAUGUUAAGAGGUGGCCGUGGUGGAGACAGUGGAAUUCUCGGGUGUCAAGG` is reported as 0.0784.
`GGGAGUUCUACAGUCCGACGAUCCCUCAAGUCCUGUGCUACACAUCGUAUGUACCGAAUCGGGGUGGGGUGGUGGAAAGUAUUAUGUUACGCCGUUCGGAUCUGCACUUCCAGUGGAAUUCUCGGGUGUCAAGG` has a log2 enrichment of -0.391.
`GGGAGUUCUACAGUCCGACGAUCAGUAGCUAUGGUCAACAAAGCAGCUAUGGGCAGCAGCCUCCCACUAGUUACCCACCCCAAACUGGAUCCUACAGCCAAGCUCCAAGUCAAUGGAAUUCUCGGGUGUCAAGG` gave a log2 enrichment of 0.903.
`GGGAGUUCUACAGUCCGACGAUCGCAGGAAGUAAAAACAAAUGGAAAUGCUUCGGAUAAAAGCAGGGGUGGGGGUUGCUAAGGAAAGGGUGGGAUGGGAGUGGGUAAAGAGUUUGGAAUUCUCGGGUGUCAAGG` gave a log2 enrichment of 0.301.
`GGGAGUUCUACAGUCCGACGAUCUCCUGUGCUACACAUCGUAUGUACCGAAUCGGGUUUUUUGGGGUUUUUUGGUUUUUUGGGAAAGUAUUAUGUUACGCCGUUCGGAUCUGCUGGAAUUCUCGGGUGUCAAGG` has a log2 enrichment of 0.49.
The log2 enrichment of `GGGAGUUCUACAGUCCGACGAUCUCCUCAAGUCCUGUGCUACACAUCGUAUGUACCGAAUCGGAGGGAGGGAGGGAAAGUAUUAUGUUACGCCGUUCGGAUCUGCACUUCCAGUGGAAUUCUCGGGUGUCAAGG` is reported as 0.0156.

Set 3 — target: CCNB3, cyclin fold, Cln2 fusion (human); technique: yeast growth competition, sequencing; medium: yeast; setting: weak parent motif; baseline: not given; reading: higher = stronger binding
Parent: DOT1L docking peptide (human); SEAKRRIVFTITT
Under “normalised enrichment score”, `SEAKRRIAFTITT [V8A]` is recorded as 0.431.
`SEAKRRAVFTITT [I7A]`: “normalised enrichment score” -0.0539.
`SAAKRRIVFTITT [E2A]`: “normalised enrichment score” 0.603.
Under “normalised enrichment score”, `SEAKARIVFTITT [R5A]` is recorded as -0.0725.
`SEAKRRIVFTIAT [T12A]`: “normalised enrichment score” 0.287.
For `SEAKRRIVFAITT [T10A]`, “normalised enrichment score” read 0.0613.

Set 4 — technique: protein binding microarray; form: double-stranded DNA, one strand shown; medium: in vitro; tested at: not given; baseline: not given; reading: higher = stronger binding
Target: Histone acetyltransferase KAT6A, winged helix 2, GST fusion (KAT6A, Homo sapiens, UniProt Q92794, residues 85-181)
Setting: 8-mer, flanks averaged, mean of 2 arrays, mostly near background
Residues (chain): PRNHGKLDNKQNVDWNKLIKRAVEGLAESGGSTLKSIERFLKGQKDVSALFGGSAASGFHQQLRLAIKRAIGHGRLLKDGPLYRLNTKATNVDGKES
The E-score of `GGCTCTCA` is reported as 0.0461.
With `CCCATGTA` the E-score was -0.0415.
`CCCTAAAA` gave an E-score of -0.044.
The E-score of `AAACAGCC` is reported as -0.15.
For `CTGCAGAC`, the E-score was 0.0807.
The E-score of `CCAGTACG` is reported as -0.162.
The E-score of `CAATCGAG` is reported as -0.0671.
The E-score of `CCAAGAAA` is reported as 0.173.
With `AATTGGCT` the E-score was 0.0442.
`CCGTAATA` has an E-score of 0.0532.
With `CGCGGACC` the E-score was 0.163.
For `CGCAATAG`, the E-score was -0.14.
`CGCCGCCG` gave an E-score of 0.333.
`CGAGAGCA` gave an E-score of 0.211.
For `AGCGTCCT`, the E-score was 0.0133.
`AGCCCACT` has an E-score of -0.00974.
With `CTAGGCTC` the E-score was 0.0003.
For `AAACCTAC`, the E-score was -0.0893.
For `ACGTCTCC`, the E-score was -0.182.
The E-score of `CGATTTGA` is reported as -0.157.
`ATAAGGCC` gave an E-score of 0.0221.
For `CGAATGCG`, the E-score was 0.0491.
`CAGAGCCG` has an E-score of 0.0945.

Other studies, line by line
With `PhoQ, residues 284 288 289 292 302 303 QWQEDG` the fold induction was 13.8 (PhoP, residues 12 14 15 18 19 IQFRS (Escherichia coli, UniProt P23836); Sort-seq, refers to: YFP reporter; E. coli; PhoQ-PhoP variant library, with: 10 µM Mg2+; baseline: high Mg2+ state, higher = stronger signaling).

For quick reference, copied from above (set 4):
`CGCCGCCG` gave an E-score of 0.333.
`CGAGAGCA` gave an E-score of 0.211.
For `AGCGTCCT`, the E-score was 0.0133.
`AGCCCACT` has an E-score of -0.00974.
With `CTAGGCTC` the E-score was 0.0003.
For `AAACCTAC`, the E-score was -0.0893.
For `ACGTCTCC`, the E-score was -0.182.
The E-score of `CGATTTGA` is reported as -0.157.
`ATAAGGCC` gave an E-score of 0.0221.
